# Experimental data from different studies.
# Parts stem from different laboratories: compare values within a part only. Substitutions count along the parent as printed.

# Set 1 — technique: RNA Bind-n-Seq; molecule type: RNA; sample: in vitro; tested at: 365 nM; baseline: no-protein control; reading: higher = stronger binding
# Target: RNA binding protein fox-1 homolog 2, RRM domain, GST-SBP tag (RBFOX2, Homo sapiens, UniProt O43251-10, residues 100-194)
# Setting: natural RNA segment, single round, ends assumed
# Constant ends, left off below: GGGAGUUCUACAGUCCGACGAUC … UGGAAUUCUCGGGUGCCAA
# Construct (chain): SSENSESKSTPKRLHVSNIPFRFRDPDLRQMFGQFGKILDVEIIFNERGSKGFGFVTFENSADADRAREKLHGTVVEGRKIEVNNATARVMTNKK
Strand,RBNS enrichment (R)
UUGAAGCAAAUACAAUUCACAGCACAGUACACACAAAAACCCUGGCAUAAGACGGGGAGGUUCUUCUUAUUUUGUGAGCCGGUUGCCCUGGAAACGGAUAACAAAGGGCA,0.398
GGGGAGGGGGUGGCUGUGGUCCAGGGACCCCAGGCCCUGAUUCCUGUGCCUGGCGUCUGUCCCGGCCCCGCCUGUCAGAAGAUGAACAUGUAUAGUGGCUAACUUAAGGG,0.374
ACUAUGGACUCUUGUUGUGUGGAAUGGAAGGGGACUAGCCAGCUCUCUGCAUGGCACAUGGUCAAGGAAACUGUCCUUGGCUCAGACAGACCUGGGGUGGUGGGCAUCUG,1.61
AUGUUCUUGGAUAUGUAAGUGCCAAUACCAGUGUGAAGUAUUGAUCCCGGGCAGCAAAAUACAGCCUAAGGUUUGUAAACAUCAAUUCUAUCUCAGUUCAUCAGAGGGCC,0.613
CUGCGGGCCUGGCUUGUGUGAGCGUGUGGACAGUGGUGGCCGCGCUGUGCCUGCUCGUGUUGCCUACAUGUCCCUGGCUGUUGAGGCGCUGCUUCAGCCUGCACCCCUCC,0.876
UACUUGAUCCUCCUGAAAUGAGAGAUUUUCCUGAGAUGACUGAGUAUGGAGAUUACCAGGCAGAUGAUACCGAAAUGCUUAAAGGGGCUGUGGCUGAGGCUGUAGCAUCU,0.734
AAGUCAAAAUUUAAUAUUGGUUCUUUAACUGAAAUAUUUAAUUGAGCACUUACAUCUCUAUUGCUUUAACAGAAGGAUACUACUUCAGGAAAAUAUAUGUAAUAUGUAAA,0.42
UCAUAUUAUAGGGGACCAGAUUUGUAAUAUAGAAUUCUCCAUAACAUGAAUGAAAUUAAUUCUGUCCAAGCCAGCAUGGUGGCUUCAUAUUAAGUAGUAACAGAAGUCUG,32.8
UUUCCAAAUUUUCUCUGAAGGUGAGUUUUAUAUCAAUAAGUAUGAAUAGAGAUUUACUUUAGGGGUCCCAUGGUUGGUAGCCCACAGCUUCUUCUAAAGGGCAUUGGCCU,0.311
GCUUUAAUCAGAAAAAGCCUCCACUUUCUGUAUUAUGUUAACAUUGGCUCAUGCAUAUAACUAUCUGCUGCUGAUGUAGUUCUCCAUCUUCAAGAUUUAGAGUGGGUUAA,0.727
CCAAACCCAUGGUGCUUUCCCCCCGACCCCACUCAACCUACAUUCUGAGGAGGGGAGGGAUGGAUCAGAGGCCAUAGUGGCCCCCUGGAUAAUCCUGACAUGGGGUAGAG,0.259
UCAGCCCUCGCAACUCGCCCCUCCGGGCCCCCCCACCAGGCACAACCAUCCCCGGGGCCAGCCGGGACGUUGUCGGUUUAUUUCUGUAAAUAGAAACCAGCAAGUGUAUA,0.534

# Set 2 — technique: RNA Bind-n-Seq; molecule type: RNA; sample: in vitro; tested at: 1 µM; setting: whole 134-nt RNA, ends assumed; added: 150 mM KCl; baseline: input library; reading: higher = stronger binding
# Target: Ras GTPase-activating protein-binding protein 1, RRM domain (G3BP1, Homo sapiens, UniProt Q13283)
# Sequence of UniProt Q13283 (whole entry, looked up): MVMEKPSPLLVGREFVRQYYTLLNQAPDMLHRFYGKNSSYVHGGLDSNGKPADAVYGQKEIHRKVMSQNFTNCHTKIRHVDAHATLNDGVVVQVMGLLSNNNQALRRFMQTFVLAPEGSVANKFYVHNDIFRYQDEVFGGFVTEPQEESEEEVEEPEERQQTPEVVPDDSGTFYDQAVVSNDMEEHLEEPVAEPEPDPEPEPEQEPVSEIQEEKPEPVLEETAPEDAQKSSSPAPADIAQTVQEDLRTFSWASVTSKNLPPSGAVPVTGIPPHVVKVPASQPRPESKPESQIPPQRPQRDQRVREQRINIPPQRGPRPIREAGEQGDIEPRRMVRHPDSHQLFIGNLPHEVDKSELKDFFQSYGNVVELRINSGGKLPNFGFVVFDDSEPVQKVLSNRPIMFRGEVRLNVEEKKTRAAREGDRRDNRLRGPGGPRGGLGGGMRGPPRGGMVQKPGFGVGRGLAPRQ
# Constant ends, left off below: GGGAGUUCUACAGUCCGACGAUC … UGGAAUUCUCGGGUGUCAAGG
Strand,log2 enrichment
GUCCUGUGCUACACAUCGUAUGUACCGAAUCGGAAAAAGGAAAAAAAGGUUUUUUUGGAAAGUAUUAUGUUACGCCGUUCGGAUCUGCAC,-0.0622
UGGGAGGCGGAUUUUGUUUAUUUUUUUAGCUCAUUUCCAGGGGUGGGAAUUUUUUUUUAAUAUGUGUCAUGAAUAAAGUUGUUUUUGAAA,2.25
UGGGAGGUGGAUUUUGUUUAUUUUUUUAGCUCAUUUCCAGGGGUGGGAAUUUUUUUUUAAUAUGUGUCAUGAAUAAAGUUGUUUUAGAAA,0.792
UCAAGUCCUGUGCUACACAUCGUAUGUACCGAAUCGGAAAGGAAAGGUUUUUGGAAAGUAUUAUGUUACGCCGUUCGGAUCUGCACUUCC,-0.287
UGGGAGGUGGAUUCUGUUUAUUUUUUUAGCUCAUUUCCAGGGGUGGGAAUUUUUUUUUAAUAUGUGUCAUGAAUAAAGUUGUUUUUGAAA,1.83
UGGCCCUGGUGGCAUGCGGGGAGGAAGAGGUGGCCUCAUGGAUCGUGGUGGGCCCGGUGGAAUGUUCAGAGGUGGCCGUGGUGGAGACAG,-0.0814
CCUGUGCUACACAUCGUAUGUACCGAAUCGGGGUGGGGAAAAAAAGGGGUUUUUUUGGGGAAAGUAUUAUGUUACGCCGUUCGGAUCUGC,0.542
ACCAUGCAGGUGGGCAUCUUUGGGAAGUGGGGCAAGGGGGGGUUAGGGAGGGGGGUAACACUUUGGGAACAGGUGGUCCCAGGUCGUUUC,1.02
CCUGUGCUACACAUCGUAUGUACCGAAUCGGAAAAAAAGGAAAAAAAGGGAAAAAAAGGGAAAGUAUUAUGUUACGCCGUUCGGAUCUGC,0.0528
UAACUUUAGAGGAGGAUCUGAUGGAUAUGGCAGUGGACGUGGAUUUGGGGAUGGCUAUAAUGGGUAUGGUGGAGGACCUGGAGGUGGCAA,-0.326
AAGUCCUGUGCUACACAUCGUAUGUACCGAAUCAAAUUUAAACCCCCAAACCCAAAAAAGUAUUAUGUUACGCCGUUCGGAUCUGCACUU,-0.176
CACAGACAACACGCACCCACACAGACACAGAGGGAAGGGGUUGGGAAAGGGACAGGGUGCACAGCAGGGCGGGGUAGGACCCCAGCCCCU,-0.147
GUCCUGUGCUACACAUCGUAUGUACCGAAUCGGGUUUUUGGGUUUUUUUGGGAAAGGGAAAGUAUUAUGUUACGCCGUUCGGAUCUGCAC,0.118
ACCAUGCAGGUGAGCAUCUUUGGGAAGUGGGGCAAGGGGGGGAUAGGGAGGGGGGUAACACUUUGGGAACAGGUGGUCCCAGGUCGUUUC,-0.476

# Set 3 — technique: DHFR PCA, deep sequencing; sample: yeast; added: (+)-ABA 0.0091 µM; baseline: wild-type fitted maximum; reading: higher = stronger binding
# Target: ABI1, truncated, D143A, DHFR fusion (Arabidopsis thaliana)
# Setting: methotrexate growth selection, single substitutions
# Parent: PYL1, truncated, DHFR fusion (Arabidopsis thaliana); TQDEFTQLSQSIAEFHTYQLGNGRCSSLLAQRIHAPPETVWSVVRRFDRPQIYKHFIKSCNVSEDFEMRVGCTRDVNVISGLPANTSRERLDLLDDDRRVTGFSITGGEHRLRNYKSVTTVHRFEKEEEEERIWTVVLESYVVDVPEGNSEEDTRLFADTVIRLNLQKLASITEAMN; partner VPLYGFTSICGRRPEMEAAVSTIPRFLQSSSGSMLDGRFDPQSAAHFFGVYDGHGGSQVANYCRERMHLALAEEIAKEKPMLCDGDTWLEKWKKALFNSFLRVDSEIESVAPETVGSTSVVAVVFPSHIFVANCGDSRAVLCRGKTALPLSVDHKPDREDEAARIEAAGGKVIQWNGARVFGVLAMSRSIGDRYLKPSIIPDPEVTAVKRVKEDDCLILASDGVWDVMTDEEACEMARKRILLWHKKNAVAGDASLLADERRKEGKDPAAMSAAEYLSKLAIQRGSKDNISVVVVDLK
Change,relative binding score
K126I,25.3%
E147N,11.2%
E130L,16.8%
S63T,18%
H122Y,-5.26%
N114A,-0.739%
Q31P,0.0971%
I12T,-0.812%
R155D,-4.94%
H55E,19.3%
V137F,0.336%
Q7Y,20.7%
P146I,30.7%
E67V,41%
F103M,1.22%
I172K,0.0412%
S11M,16.3%

# Set 4 — technique: protein-binding microarray; molecule type: double-stranded DNA, one strand shown; sample: in vitro; tested at: 0.8 µM; setting: whole 60-bp probe, no competitor; reading: higher = stronger binding; constant ends, left off below: … GTCTTGATTCGCTTGACGCTGCTG
# Target: Centromere-binding protein 1, full length, N-terminal tag (CBF1, Saccharomyces cerevisiae, UniProt P17106, residues 1-351)
# Sequence of UniProt P17106 (whole entry, looked up): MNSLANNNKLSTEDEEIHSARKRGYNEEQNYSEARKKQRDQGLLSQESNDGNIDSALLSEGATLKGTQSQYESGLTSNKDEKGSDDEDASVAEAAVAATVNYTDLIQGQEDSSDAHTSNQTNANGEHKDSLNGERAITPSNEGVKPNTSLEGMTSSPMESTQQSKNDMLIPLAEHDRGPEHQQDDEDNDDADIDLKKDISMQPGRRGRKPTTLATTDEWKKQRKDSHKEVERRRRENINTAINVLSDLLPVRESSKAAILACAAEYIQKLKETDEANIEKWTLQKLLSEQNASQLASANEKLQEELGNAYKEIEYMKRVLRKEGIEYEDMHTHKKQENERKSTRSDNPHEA
Strand,fluorescence intensity [a.u.]
GAATTGTAACAATATCATGAGACCTTTTATAGATAG,682
GAACTTGTCCCATGTCAGGTGTAAAACTGACGGTAG,1200
CTACCGCGTAGAAATCACGTCGCGCAATGTGCGTTC,574
CTATTAGCACCATCGCGCGTGCATCACTGCATGTTC,556
TGTACGAAGCTATATGTGGCGCTTATAGTAGTTAGG,461
GAACCAGGGGCTAATGGTGTGAAGGCACTTTCTTAG,484
GAATTATGAGCTACCCTCGTGGCCTGAAAGATGTAG,566
GAACTTCGCATTAAGCGCGTGAAACTATTGGCATAG,564
CTATATTGGCTAGCGGTCGTGACACTAATATGTTTC,744
CTAAATTTTCTATAGAACGTGTATGGCTCACGATTC,534
GAAAAAGGCAAAGATCACATCTTAACCTTTTTGTAG,515
GAAATAATGTCAGGTGGCGTGAACGGTACATGGTAG,2820
GAACCGAATTGTAATCTCGTGAAATACAAAAGGTAG,774
GAACTCCGCTTGAATCACGTCTTCTAAGCGGGATAG,636
GAATACAAAACTAACCACGTGCAGCATCGTCTTTAG,7730
GAAGCGTAGGAAACGCATGTGGTAGCTCGTTTCTAG,533
TGTACGAAGCTATGTGGGGTGATTATAGTAGTTAGG,533
CCTAACTACTATAGTCACCAAGGATAGCTTCGTACA,524
TGTACGAAGCTATAACACGTCATTATAGTAGTTAGG,543
CTACGATATCTTTATCAGGTGATTCTTACGCGCTTC,3060

# Set 5 — technique: protein binding microarray; molecule type: double-stranded DNA, one strand shown; sample: in vitro; tested at: not given; baseline: not given; reading: higher = stronger binding
# Target: Histone acetyltransferase KAT6A, winged helix 1, GST fusion (KAT6A, Homo sapiens, UniProt Q92794, residues 1-85)
# Setting: 8-mer, flanks averaged, mean of 2 arrays, mostly near background
# Target sequence (chain): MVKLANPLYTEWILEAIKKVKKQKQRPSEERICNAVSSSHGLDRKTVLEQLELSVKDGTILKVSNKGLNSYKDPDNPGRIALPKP
Strand,E-score
ACTGCACG,0.0684
ACTGCTGA,-0.0707
CAAGTTAG,-0.0364
AAGGTTTC,-0.0522
AATACGGC,0.299
CGGGTGAC,0.348
AGCCAGAT,-0.229
CCCCTGAC,0.046
AATCCCAT,-0.161
GTGATTTA,-0.0583
GAGGCTTA,-0.0397
AAAAGAGC,-0.00663
ATAGGGCA,-0.265
CGTGGTTC,0.132
CAACGTTC,0.0437
GAGTCAGC,-0.0123
AACGACCC,0.0668
AATATATC,-0.136
TCGGCAGA,0.106
GATCCTGA,0.00971
AACGGGAG,0.0671
AAGCTCCC,-0.0162
ACTGTTCT,-0.205
AAGCAAAA,-0.252

# Set 6 — technique: universal PBM; molecule type: double-stranded DNA, one strand shown; sample: in vitro; tested at: 600 nM; reading: higher = stronger binding
# Target: Sal-like protein 4, full length isoform A (SALL4, Homo sapiens, UniProt Q9UJQ4, residues 1-1053)
# Sequence of UniProt Q9UJQ4 (whole entry, looked up): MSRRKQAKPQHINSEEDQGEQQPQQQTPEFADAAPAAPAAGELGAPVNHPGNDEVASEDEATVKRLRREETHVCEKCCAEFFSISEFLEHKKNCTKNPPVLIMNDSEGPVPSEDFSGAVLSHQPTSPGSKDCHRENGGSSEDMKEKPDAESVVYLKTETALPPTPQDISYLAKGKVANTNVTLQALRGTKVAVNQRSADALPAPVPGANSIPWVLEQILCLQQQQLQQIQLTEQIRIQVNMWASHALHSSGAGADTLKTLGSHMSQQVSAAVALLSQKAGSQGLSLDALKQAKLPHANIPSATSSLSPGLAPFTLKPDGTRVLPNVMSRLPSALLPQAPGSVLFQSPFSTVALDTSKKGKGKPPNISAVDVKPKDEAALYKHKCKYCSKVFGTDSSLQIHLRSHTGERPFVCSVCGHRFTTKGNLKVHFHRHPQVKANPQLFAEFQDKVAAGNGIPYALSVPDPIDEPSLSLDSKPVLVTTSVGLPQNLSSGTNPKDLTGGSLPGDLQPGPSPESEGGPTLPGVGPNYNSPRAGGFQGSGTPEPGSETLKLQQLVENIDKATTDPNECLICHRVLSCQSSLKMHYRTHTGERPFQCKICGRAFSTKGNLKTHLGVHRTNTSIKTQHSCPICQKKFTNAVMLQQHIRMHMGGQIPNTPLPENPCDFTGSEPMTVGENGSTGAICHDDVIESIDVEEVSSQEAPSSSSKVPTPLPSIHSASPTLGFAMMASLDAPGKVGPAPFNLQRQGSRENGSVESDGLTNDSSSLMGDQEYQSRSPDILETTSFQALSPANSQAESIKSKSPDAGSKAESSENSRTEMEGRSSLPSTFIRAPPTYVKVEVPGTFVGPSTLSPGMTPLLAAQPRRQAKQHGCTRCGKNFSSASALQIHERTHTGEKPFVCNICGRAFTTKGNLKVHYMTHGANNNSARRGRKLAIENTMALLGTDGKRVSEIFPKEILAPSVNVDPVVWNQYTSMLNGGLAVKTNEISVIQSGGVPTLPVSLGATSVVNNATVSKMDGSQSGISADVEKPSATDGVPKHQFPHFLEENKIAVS
# Setting: 8-mer, flanks averaged, mean of replicates
Strand,E-score
GGAGATTA,0.0969
TACGCAGA,0.11
CGTCGGTA,-0.102
ACGAGGAT,0.049
ACCGGCAC,-0.237
GTGTCACA,0.0341
AACTGTGA,0.0415
GGAAGAAC,-0.00531
AAGGCTTA,0.0996
ACCAATCG,0.0762
GCAGGCGA,-0.204
CGTCTGCC,-0.226
GGTCCATA,0.0171
AAGTCAGA,-0.0512
AGACTGAC,-0.0736
GTAGTTTA,0.236
CCTAACGA,0.0889

# Excerpt of the above (set 1):
Strand,RBNS enrichment (R)
GCUUUAAUCAGAAAAAGCCUCCACUUUCUGUAUUAUGUUAACAUUGGCUCAUGCAUAUAACUAUCUGCUGCUGAUGUAGUUCUCCAUCUUCAAGAUUUAGAGUGGGUUAA,0.727
UCAGCCCUCGCAACUCGCCCCUCCGGGCCCCCCCACCAGGCACAACCAUCCCCGGGGCCAGCCGGGACGUUGUCGGUUUAUUUCUGUAAAUAGAAACCAGCAAGUGUAUA,0.534
AAGUCAAAAUUUAAUAUUGGUUCUUUAACUGAAAUAUUUAAUUGAGCACUUACAUCUCUAUUGCUUUAACAGAAGGAUACUACUUCAGGAAAAUAUAUGUAAUAUGUAAA,0.42
UCAUAUUAUAGGGGACCAGAUUUGUAAUAUAGAAUUCUCCAUAACAUGAAUGAAAUUAAUUCUGUCCAAGCCAGCAUGGUGGCUUCAUAUUAAGUAGUAACAGAAGUCUG,32.8
CUGCGGGCCUGGCUUGUGUGAGCGUGUGGACAGUGGUGGCCGCGCUGUGCCUGCUCGUGUUGCCUACAUGUCCCUGGCUGUUGAGGCGCUGCUUCAGCCUGCACCCCUCC,0.876
AUGUUCUUGGAUAUGUAAGUGCCAAUACCAGUGUGAAGUAUUGAUCCCGGGCAGCAAAAUACAGCCUAAGGUUUGUAAACAUCAAUUCUAUCUCAGUUCAUCAGAGGGCC,0.613
UACUUGAUCCUCCUGAAAUGAGAGAUUUUCCUGAGAUGACUGAGUAUGGAGAUUACCAGGCAGAUGAUACCGAAAUGCUUAAAGGGGCUGUGGCUGAGGCUGUAGCAUCU,0.734
